Published values of several laboratories.
Protocols differ between the studies behind these lines.
RPS6KA1 C-terminal kinase domain: Ribosomal protein S6 kinase alpha-1, C-terminal kinase domain (RPS6KA1, Homo sapiens, UniProt Q15418)
RPS6KA1 N-terminal kinase domain: Ribosomal protein S6 kinase alpha-1, N-terminal kinase domain (RPS6KA1, Homo sapiens, UniProt Q15418)

| SMILES | target | observed | method | concentration | relative to | remaining binding [%] |
| --- | --- | --- | --- | --- | --- | --- |
| Cc1cnc2nc1Nc1cccc(c1)COC/C=C/COCc1cc(ccc1OCCN1CCOCC1)N2 | RPS6KA1 C-terminal kinase domain | binding | competition with immobilised ligand | 0.1 µM | – | 98 |
| CCN1CCN(Cc2ccc(C(=O)Nc3ccc(C)c(NCc4cnc5[nH]ccc5c4OC)c3)cc2C(F)(F)F)CC1 | RPS6KA1 C-terminal kinase domain | binding | competition with immobilised ligand | 1 µM | – | 91 |
| CNC1C[S+]2CC[S+]3CC[S+](C1)[Ru-4]321([N]=C=S)[n]2c3ccc(OC)cc3c3c4c(c5cc(F)c[n+]1c5c32)C(=O)NC4=O (stereo not drawn) | RPS6KA1 C-terminal kinase domain | – | KinomeScan | 0.1 µM | untreated | 77 |
| Nc1ncc2c(n1)-c1c([nH]c3ccc(C4=CCOCC4)cc13)CCC2 | RPS6KA1 N-terminal kinase domain | binding | competition with immobilised ligand | 1 µM | – | 100 |
| CC(C)=CC1OC(C)(C)C2C=C3C(=O)C(Cl)=CC(O)C3C3C(O)C4OC4C(=O)C132 (stereo not drawn) | RPS6KA1 N-terminal kinase domain | cell-free assay | competition with immobilised ligand | 10 µM | – | 90 |
| COc1c(Cl)cccc1Nc1c(-c2ccncc2C#C[C@@]2(C)CCCN2C(=O)/C=C/CN(C)C)[nH]c2c1C(=O)NCC2 | RPS6KA1 N-terminal kinase domain | binding | competition with immobilised ligand | 3 µM | – | 86 |
| C=CC(=O)N1CCc2ccc(-n3c(=O)ccc4cnc5ccc(-c6cnn(C)c6)cc5c43)cc21 | RPS6KA1 N-terminal kinase domain | – | KINOMEscan | 1 µM | DMSO control | 72 |
| COc1cc(Nc2nc(C)cc(-c3cnn4nc(OC)ccc34)n2)cc(C(F)(F)F)c1 | RPS6KA1 C-terminal kinase domain | binding | competition with immobilised ligand | 1 µM | – | 88 |
| CNC(=O)C1CCN(c2cc(C)c(F)cc2NC(=O)c2ccc(-c3cc(O)ccc3C)c(C)c2)CC1 | RPS6KA1 N-terminal kinase domain | binding | competition with immobilised ligand | 1 µM | – | 95 |
| COc1cc(Nc2nccc(-c3cnn4nc(OC)ccc34)n2)cc(C(F)(F)F)c1 | RPS6KA1 C-terminal kinase domain | binding | competition with immobilised ligand | 1 µM | – | 100 |
| Cc1ccc(-c2c(/C=C(\C#N)C(=O)NC(C)C)n(CCCO)c3ncnc(N)c23)cc1 | RPS6KA1 C-terminal kinase domain | binding | competition with immobilised ligand | 1 µM | – | 29 |
| C=CC(=O)N1CCCC(n2c(=O)c3ncccc3n(Cc3ccc(Oc4ccccc4)cc3)c2=O)C1 (stereo not drawn) | RPS6KA1 N-terminal kinase domain | binding | competition with immobilised ligand | 1 µM | – | 96 |

Repeated from above:
| SMILES | target | observed | method | concentration | relative to | remaining binding [%] |
| --- | --- | --- | --- | --- | --- | --- |
| COc1c(Cl)cccc1Nc1c(-c2ccncc2C#C[C@@]2(C)CCCN2C(=O)/C=C/CN(C)C)[nH]c2c1C(=O)NCC2 | RPS6KA1 N-terminal kinase domain | binding | competition with immobilised ligand | 3 µM | – | 86 |
